Measurements pooled from the literature.
Every numbered part comes from another study and shows a few of its results, in no order. Several values in a cell are separate wells, animals, samples, runs or records.
Sequence of UniProt Q08345 (whole entry, looked up): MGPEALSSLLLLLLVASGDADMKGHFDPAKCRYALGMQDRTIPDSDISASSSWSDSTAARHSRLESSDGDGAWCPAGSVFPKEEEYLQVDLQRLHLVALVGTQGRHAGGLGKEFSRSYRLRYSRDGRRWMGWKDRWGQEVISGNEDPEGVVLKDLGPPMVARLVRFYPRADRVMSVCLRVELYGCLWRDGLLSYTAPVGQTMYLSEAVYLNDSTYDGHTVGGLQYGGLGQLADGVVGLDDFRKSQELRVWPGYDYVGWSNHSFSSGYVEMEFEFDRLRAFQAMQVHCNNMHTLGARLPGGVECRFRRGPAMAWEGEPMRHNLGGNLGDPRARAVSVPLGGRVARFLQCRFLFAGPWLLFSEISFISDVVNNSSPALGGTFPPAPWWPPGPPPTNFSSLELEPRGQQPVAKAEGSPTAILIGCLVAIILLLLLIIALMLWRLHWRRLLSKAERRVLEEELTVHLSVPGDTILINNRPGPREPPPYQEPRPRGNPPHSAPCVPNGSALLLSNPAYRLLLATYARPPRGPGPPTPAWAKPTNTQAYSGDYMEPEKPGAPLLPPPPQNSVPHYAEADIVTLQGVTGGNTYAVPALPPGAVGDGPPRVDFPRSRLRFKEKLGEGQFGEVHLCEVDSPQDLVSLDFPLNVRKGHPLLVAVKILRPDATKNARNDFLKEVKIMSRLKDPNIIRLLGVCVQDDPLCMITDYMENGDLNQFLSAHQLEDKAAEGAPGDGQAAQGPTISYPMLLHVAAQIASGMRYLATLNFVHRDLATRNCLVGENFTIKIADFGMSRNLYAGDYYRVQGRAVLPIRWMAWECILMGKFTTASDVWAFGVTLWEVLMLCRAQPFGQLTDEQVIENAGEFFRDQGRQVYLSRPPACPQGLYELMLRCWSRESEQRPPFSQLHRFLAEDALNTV
Sequence of UniProt P07948 (whole entry, looked up): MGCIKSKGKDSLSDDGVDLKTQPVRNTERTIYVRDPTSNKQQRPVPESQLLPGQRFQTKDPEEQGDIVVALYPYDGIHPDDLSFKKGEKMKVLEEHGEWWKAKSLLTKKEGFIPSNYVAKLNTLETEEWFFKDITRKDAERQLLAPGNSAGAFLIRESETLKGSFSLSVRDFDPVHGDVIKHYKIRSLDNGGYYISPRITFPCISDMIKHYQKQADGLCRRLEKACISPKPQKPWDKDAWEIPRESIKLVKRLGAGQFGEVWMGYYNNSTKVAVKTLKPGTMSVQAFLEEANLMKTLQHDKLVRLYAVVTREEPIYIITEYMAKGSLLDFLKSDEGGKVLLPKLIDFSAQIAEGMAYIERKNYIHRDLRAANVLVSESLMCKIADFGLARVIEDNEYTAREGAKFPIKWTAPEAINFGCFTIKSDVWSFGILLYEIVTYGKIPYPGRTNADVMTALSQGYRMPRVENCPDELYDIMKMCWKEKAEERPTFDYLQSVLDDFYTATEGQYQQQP
Sequence of UniProt Q16832 (whole entry, looked up): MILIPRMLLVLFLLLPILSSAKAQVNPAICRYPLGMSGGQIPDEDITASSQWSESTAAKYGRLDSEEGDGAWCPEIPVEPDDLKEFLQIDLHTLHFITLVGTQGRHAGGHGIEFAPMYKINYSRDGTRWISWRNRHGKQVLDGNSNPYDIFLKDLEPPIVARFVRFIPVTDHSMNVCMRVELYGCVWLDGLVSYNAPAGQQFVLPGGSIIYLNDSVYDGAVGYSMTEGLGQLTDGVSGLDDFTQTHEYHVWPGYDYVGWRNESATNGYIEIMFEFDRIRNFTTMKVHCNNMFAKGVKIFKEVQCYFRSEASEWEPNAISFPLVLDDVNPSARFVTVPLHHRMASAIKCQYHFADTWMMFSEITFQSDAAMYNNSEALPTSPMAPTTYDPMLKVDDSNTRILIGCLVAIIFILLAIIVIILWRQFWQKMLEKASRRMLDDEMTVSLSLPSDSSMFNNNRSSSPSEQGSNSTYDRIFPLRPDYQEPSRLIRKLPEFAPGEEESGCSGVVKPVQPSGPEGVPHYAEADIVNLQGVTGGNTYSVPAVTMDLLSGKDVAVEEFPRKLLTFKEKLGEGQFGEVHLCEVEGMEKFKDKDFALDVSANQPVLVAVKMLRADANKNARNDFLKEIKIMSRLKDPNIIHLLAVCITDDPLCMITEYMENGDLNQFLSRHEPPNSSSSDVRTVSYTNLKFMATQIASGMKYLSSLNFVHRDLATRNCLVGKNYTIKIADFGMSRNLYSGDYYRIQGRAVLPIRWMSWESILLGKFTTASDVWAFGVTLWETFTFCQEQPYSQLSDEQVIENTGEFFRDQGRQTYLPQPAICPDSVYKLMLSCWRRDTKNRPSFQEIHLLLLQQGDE
Sequence of UniProt Q02763 (whole entry, looked up): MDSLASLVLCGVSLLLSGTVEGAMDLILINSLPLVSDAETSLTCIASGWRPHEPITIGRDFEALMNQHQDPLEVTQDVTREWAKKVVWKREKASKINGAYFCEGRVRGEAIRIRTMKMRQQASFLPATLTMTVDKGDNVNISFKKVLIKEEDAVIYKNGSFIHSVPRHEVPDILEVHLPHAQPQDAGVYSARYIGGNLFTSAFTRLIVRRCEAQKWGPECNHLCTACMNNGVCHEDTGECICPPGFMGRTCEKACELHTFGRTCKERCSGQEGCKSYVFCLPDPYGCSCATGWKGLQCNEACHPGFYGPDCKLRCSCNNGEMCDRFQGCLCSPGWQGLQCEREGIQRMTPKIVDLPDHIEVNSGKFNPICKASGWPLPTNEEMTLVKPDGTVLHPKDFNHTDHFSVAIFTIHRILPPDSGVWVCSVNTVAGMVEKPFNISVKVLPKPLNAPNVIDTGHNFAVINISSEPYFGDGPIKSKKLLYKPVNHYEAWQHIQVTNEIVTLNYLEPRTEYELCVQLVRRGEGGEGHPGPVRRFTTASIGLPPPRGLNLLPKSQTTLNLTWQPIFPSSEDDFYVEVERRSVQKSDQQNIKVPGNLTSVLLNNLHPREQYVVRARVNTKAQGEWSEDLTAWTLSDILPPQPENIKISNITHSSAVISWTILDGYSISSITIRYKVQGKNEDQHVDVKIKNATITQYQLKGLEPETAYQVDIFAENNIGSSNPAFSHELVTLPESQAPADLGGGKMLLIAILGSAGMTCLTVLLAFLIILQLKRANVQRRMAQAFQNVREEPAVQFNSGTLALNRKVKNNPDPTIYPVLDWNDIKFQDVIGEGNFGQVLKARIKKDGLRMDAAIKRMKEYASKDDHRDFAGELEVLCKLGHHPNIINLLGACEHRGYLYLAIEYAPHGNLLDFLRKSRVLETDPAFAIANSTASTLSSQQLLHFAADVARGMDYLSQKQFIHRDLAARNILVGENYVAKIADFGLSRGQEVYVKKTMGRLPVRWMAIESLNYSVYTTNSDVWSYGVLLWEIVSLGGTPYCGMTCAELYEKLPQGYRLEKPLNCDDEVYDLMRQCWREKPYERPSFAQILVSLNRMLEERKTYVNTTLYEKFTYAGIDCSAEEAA
Sequence of UniProt O15197 (whole entry, looked up): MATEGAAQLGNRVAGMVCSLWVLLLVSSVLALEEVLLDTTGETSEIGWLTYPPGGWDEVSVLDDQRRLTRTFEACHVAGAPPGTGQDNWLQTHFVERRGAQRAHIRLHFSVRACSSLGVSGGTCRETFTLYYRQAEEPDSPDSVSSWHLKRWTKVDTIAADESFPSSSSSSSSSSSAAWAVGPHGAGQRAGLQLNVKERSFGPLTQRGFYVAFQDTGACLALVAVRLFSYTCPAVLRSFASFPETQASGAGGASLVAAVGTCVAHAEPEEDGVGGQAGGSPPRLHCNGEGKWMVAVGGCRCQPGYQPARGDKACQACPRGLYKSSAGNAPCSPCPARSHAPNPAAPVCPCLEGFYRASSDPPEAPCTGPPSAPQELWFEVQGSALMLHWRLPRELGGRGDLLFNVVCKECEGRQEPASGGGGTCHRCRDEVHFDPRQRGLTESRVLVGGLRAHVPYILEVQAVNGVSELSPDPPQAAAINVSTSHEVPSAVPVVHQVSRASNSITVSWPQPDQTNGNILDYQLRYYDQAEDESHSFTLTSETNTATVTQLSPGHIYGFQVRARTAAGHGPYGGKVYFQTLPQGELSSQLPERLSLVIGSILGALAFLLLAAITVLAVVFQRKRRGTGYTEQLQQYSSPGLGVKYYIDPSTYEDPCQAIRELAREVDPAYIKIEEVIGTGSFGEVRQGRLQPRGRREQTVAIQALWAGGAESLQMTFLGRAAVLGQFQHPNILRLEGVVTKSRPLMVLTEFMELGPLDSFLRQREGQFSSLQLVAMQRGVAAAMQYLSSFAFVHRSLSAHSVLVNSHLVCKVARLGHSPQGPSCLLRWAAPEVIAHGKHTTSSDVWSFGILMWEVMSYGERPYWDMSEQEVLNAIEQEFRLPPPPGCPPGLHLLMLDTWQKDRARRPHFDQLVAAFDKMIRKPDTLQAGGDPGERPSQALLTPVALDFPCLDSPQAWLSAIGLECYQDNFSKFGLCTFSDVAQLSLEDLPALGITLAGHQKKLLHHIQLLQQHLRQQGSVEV

Study 1
Target: Lymphokine-activated killer T-cell-originated protein kinase (PBK, Homo sapiens, UniProt Q96KB5)
Observed: enzyme activity
Mode: inhibitor
Tested at: 0.5 µM
Baseline: control
Quantity: remaining activity
Residues (Q96KB5 1-322): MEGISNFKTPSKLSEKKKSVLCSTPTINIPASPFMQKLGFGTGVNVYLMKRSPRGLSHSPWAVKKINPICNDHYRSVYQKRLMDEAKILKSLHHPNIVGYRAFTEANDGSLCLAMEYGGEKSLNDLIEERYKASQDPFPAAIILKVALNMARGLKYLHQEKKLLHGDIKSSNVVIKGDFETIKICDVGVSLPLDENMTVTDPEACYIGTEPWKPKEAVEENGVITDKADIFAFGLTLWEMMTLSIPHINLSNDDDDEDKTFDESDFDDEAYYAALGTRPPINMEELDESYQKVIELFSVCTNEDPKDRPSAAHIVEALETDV
CCN(CC)CCNC(=O)c1c(C)[nH]c(/C=C2\C(=O)Nc3ccc(F)cc32)c1C: 106%
CCOc1nc(NC(=O)Cc2cc(OC)ccc2OC)cc(N)c1C#N: 116%
Ic1cccc(CSc2nnc(-c3ccncc3)o2)c1: 62.7%
O=C(Nc1cccc(Nc2nccc(Nc3cccc(C(F)(F)F)c3)n2)c1)C1CC1: 101%
Nc1cccc(-c2cc3c(Oc4cccc(O)c4)ncnc3[nH]2)c1: 93.9%
COc1cc2ncnc(Nc3cccc(Cl)c3)c2cc1OC: 70.9%
O=C1C(Cl)=C(N2C(=O)CCC2=O)C(=O)c2ccccc21: 106%
N#C/C(=C\c1ccc(O)c(O)c1)C(=O)NCc1ccccc1: 84.2%
Cc1nc2cc3nc(-c4cccs4)cnc3cc2n1C: 98.9%
CCN(CC)C(=O)c1ccc(Nc2nc(OCC3CCCCC3)c3[nH]cnc3n2)cc1: 116%
O=C1c2ccccc2-c2n[nH]c3cccc1c23: 89.1%
COc1cc2c(cc1OC)-c1[nH]nc(Nc3cccc(F)c3)c1C2: 86.8%
O=c1cc(-c2cccc3c2Sc2ccccc2S3)oc(N2CCOCC2)c1: 99.4%
c1ccc(-c2cnc(Nc3ccc(OCCN4CCCC4)cc3)s2)cc1: 108%
N#Cc1c(NC(=O)c2cccc3ccccc23)sc2c1CCCC2: 116%
CN(C)C[C@H]1CCn2c(c(C3=C(c4cn(C)c5ccccc45)C(=O)NC3=O)c3ccccc32)C1: 101%
c1ccc(-c2[nH]ncc2-c2ccnc3ccccc23)nc1: 91.9%
Cn1nc2c3c(cccc31)C(=O)c1ccccc1-2: 108%
CCN(CC)CCNC(=O)c1c(C)[nH]c(/C=C2\C(=O)Nc3ccc(Cl)cc32)c1C: 104%
COc1cc2ncnc(Nc3ccc(O)c(Br)c3)c2cc1OC: 101%
C[C@@H]1CCN(C(=O)CC#N)C[C@@H]1N(C)c1ncnc2[nH]ccc12: 102%
CN([C@@H](Cc1ccc(OS(=O)(=O)c2cccc3cnccc23)cc1)C(=O)N1CCN(c2ccccc2)CC1)S(=O)(=O)c1cccc2cnccc12: 99.2%
O=C(NC(NC(=S)Nc1ccc(F)c([N+](=O)[O-])c1)C(Cl)(Cl)Cl)C(c1ccccc1)c1ccccc1 (centres unmarked): 116%
Cc1cn(-c2cc(NC(=O)c3ccc(C)c(Nc4nccc(-c5cccnc5)n4)c3)cc(C(F)(F)F)c2)cn1: 103%
Cc1cc2ncc(-c3ccccc3)nc2cc1C: 94.5%

Study 2
SMILES: O=C(Nc1ccccc1)Nc1cccc(Oc2ccc3nccn3n2)c1
Method: competitive binding panel
Tested at: 1 µM
Baseline: vehicle
Quantity: remaining binding
Casein kinase I isoform gamma-3 (CSNK1G3, Homo sapiens, UniProt Q9Y6M4): 98%
SNF-related serine/threonine-protein kinase (SNRK, Homo sapiens, UniProt Q9NRH2): 100%
RAC-gamma serine/threonine-protein kinase (AKT3, Homo sapiens, UniProt Q9Y243): 80%
Serine/threonine-protein kinase ULK3 (ULK3, Homo sapiens, UniProt Q6PHR2): 100%
Mast/stem cell growth factor receptor Kit (KIT, Homo sapiens, UniProt P10721, V559D/V654A): 18%
Phosphorylase b kinase gamma catalytic chain, skeletal muscle/heart isoform (PHKG1, Homo sapiens, UniProt Q16816): 100%

Study 3
Structure (SMILES): CC(=O)N[C@@H](Cc1c[nH]c2ccccc12)C(=O)N[C@@H](CCC(=O)C=[N+]=[N-])C(=O)OC(C)C
Dose: dose not given
Baseline: vehicle
Quantity: log2 fold change
measured: 2'-deoxyuridine; mouse, EL4 tumour-bearing, EL4 tumour: 0.182
metabolomics, measured: cytidine 2',3'-cyclic monophosphate; mouse, EL4 tumour: 2.04
measured: 2'-deoxyguanosine 3'-monophosphate; mouse, EL4 tumour, tumour: 1.92
measured: N6-succinyladenosine; mouse, EL4 tumour-bearing, EL4 tumour: -0.114
measured: N-delta-acetylornithine; mouse, EL4 tumour-bearing, EL4 tumour: -0.744
measured: dihydroorotate; mouse, EL4 tumour-bearing, EL4 tumour: -1.6
measured: dihydrobiopterin; mouse, EL4 tumour-bearing, EL4 tumour: 0.29
metabolomics, measured: uridine 2'-monophosphate; mouse, EL4 tumour: 1.28
measured: 3-hydroxyisobutyrate; mouse, EL4 tumour-bearing, EL4 tumour: -0.339
measured: creatine; mouse, EL4 tumour-bearing, EL4 tumour: 0.859
measured: NAD+; mouse, EL4 tumour-bearing, EL4 tumour: -0.289
measured: pyridoxate; mouse, EL4 tumour-bearing, EL4 tumour: 0.511
measured: gamma-glutamylcysteine; mouse, EL4 tumour-bearing, EL4 tumour: -0.847

Study 4
Target: Calcium/calmodulin-dependent protein kinase type II subunit alpha (CAMK2A, Homo sapiens, UniProt Q9UQM7)
Sequence of UniProt Q9UQM7 (whole entry, looked up): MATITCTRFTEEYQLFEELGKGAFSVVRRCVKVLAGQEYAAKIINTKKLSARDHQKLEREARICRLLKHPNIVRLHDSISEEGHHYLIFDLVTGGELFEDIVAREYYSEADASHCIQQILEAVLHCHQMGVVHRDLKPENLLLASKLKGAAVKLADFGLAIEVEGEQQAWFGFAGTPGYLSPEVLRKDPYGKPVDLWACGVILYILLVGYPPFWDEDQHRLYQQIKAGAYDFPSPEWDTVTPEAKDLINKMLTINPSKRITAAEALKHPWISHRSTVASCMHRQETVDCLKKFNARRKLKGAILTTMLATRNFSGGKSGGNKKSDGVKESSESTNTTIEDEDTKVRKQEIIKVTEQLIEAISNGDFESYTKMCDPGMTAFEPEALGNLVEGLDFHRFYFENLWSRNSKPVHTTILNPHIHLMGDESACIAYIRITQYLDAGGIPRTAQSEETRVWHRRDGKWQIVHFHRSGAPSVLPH
Observed: enzyme activity
Mode: inhibitor
Tested at: 10 µM
Quantity: inhibition
COc1cc2cc(c1Cl)N(C)C(=O)C[C@H](OC(=O)[C@H](C)N(C)C(C)=O)[C@]1(C)O[C@H]1[C@H](C)[C@@H]1C[C@@](O)(NC(=O)O1)[C@H](OC)/C=C/C=C(\C)C2: -10%
CCCCCCCCCCCCCCCCCCCCCCC(=O)O: -30%
OC[C@H]1O[C@@H](Oc2cc(/C=C/c3cc(O)cc(O)c3)ccc2O)[C@H](O)[C@@H](O)[C@@H]1O: -9%
CC(=O)c1ccccc1: 20%
C[C@]12CC[C@@H]3c4ccc(O)cc4CC[C@H]3[C@@H]1CCC2=O: 5%
C[C@@H]1O[C@@H](Oc2cc(O)c3c(c2)O[C@H](c2ccc(O)c(O)c2)[C@@H](O)C3=O)[C@H](O)[C@H](O)[C@H]1O: 13%
O=c1ccn([C@H]2C[C@H](O)[C@@H](COP(=O)(O)O)O2)c(=O)[nH]1: 6%
CC[N+](C)(C)c1cccc(O)c1: -9%
Cc1nc2c([nH]1)-c1ccccc1N(C(=O)c1ccc(NC(=O)c3ccccc3-c3ccccc3)cc1)CC2: -7%

Study 5
Structure (SMILES): Cc1cc(C)c(-n2ccn3nc(-c4cccnc4)cc23)cc1NC(=O)c1cc(C#N)cc(S(F)(F)(F)(F)F)c1
Observed: target engagement
Method: NanoBRET
Matrix: live cells
Quantity: EC50
Ephrin type-B receptor 6 (EPHB6, Homo sapiens, UniProt O15197): 9410 nM and 13500 nM
Angiopoietin-1 receptor (TEK, Homo sapiens, UniProt Q02763): 1.72 nM and 1.18 nM and 2.14 nM
Discoidin domain-containing receptor 2 (DDR2, Homo sapiens, UniProt Q16832): 0.519 nM and 0.651 nM and 0.456 nM
Epithelial discoidin domain-containing receptor 1 (DDR1, Homo sapiens, UniProt Q08345): 1.36 nM and 2.05 nM and 1.18 nM
Tyrosine-protein kinase Lyn (LYN, Homo sapiens, UniProt P07948): 7310 nM and 6550 nM and 8460 nM

Further values, each from its own experiment
CNCCC[C@]12CC[C@H](c3ccccc31)c1ccccc12
remaining activity (DNA polymerase theta, ATPase domain (POLQ, Homo sapiens, UniProt O75417); enzyme activity; 77 µM): 107%

Excerpt of the above (study 1):
O=C(NC(NC(=S)Nc1ccc(F)c([N+](=O)[O-])c1)C(Cl)(Cl)Cl)C(c1ccccc1)c1ccccc1 (centres unmarked): 116%
CN(C)C[C@H]1CCn2c(c(C3=C(c4cn(C)c5ccccc45)C(=O)NC3=O)c3ccccc32)C1: 101%
CCN(CC)CCNC(=O)c1c(C)[nH]c(/C=C2\C(=O)Nc3ccc(Cl)cc32)c1C: 104%
CCOc1nc(NC(=O)Cc2cc(OC)ccc2OC)cc(N)c1C#N: 116%
O=C(Nc1cccc(Nc2nccc(Nc3cccc(C(F)(F)F)c3)n2)c1)C1CC1: 101%
N#Cc1c(NC(=O)c2cccc3ccccc23)sc2c1CCCC2: 116%
COc1cc2ncnc(Nc3cccc(Cl)c3)c2cc1OC: 70.9%
Cc1nc2cc3nc(-c4cccs4)cnc3cc2n1C: 98.9%
